Measurements collected from several papers.
Numbered parts are unrelated; each lists some results of a single study.

Sample 1
Target: Sal-like protein 4, full length isoform A (SALL4, Homo sapiens, UniProt Q9UJQ4, residues 1-1053)
UniProt Q9UJQ4, sequence (whole entry, looked up): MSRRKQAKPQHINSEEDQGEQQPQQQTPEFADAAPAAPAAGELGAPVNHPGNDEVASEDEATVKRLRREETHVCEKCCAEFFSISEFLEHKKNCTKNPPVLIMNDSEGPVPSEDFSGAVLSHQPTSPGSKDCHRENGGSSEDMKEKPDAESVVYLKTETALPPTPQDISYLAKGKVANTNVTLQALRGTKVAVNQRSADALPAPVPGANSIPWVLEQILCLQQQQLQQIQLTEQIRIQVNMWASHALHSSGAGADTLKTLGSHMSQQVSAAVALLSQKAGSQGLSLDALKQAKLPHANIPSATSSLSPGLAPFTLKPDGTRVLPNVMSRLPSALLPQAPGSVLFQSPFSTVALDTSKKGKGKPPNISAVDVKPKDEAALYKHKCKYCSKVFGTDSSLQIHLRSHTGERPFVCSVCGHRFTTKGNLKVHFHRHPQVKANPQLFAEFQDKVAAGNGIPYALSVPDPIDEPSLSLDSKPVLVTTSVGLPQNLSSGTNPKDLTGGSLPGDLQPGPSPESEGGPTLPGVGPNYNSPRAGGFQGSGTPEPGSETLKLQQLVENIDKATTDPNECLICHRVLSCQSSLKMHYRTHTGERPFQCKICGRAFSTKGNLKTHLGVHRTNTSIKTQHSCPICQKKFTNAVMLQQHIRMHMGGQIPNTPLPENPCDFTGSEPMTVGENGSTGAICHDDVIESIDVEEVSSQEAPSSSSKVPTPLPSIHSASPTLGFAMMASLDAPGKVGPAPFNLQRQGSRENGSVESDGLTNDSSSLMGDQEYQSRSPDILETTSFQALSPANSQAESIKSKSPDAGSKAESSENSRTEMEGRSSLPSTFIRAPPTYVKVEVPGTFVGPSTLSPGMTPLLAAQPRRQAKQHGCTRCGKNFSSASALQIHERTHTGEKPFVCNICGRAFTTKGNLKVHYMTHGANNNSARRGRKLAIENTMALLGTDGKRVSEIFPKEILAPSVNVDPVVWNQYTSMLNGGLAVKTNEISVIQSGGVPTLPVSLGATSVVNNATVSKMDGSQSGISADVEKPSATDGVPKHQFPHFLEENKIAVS
Technique: universal PBM
Form: double-stranded DNA, one strand shown
Sample: in vitro
Tested at: 600 nM
Notes: 8-mer, flanks averaged, mean of replicates
Reading: higher = stronger binding
Quantity: E-score
ATGGTACA: 0.161
AGGATGAG: -0.0354
CACCACTA: 0.0249
AGGACAAT: 0.075
GTCATAAA: 0.415
AAAATTAT: 0.451
CCCGTTGC: -0.254
AACTTGCA: 0.0354
AAAATTGC: 0.311
CACCTCGA: -0.0931
ACTAGTTG: -0.0389
ATCGCGTC: -0.0604
ATCACGTG: -0.0439
TAACGGCA: -0.0427
CGGGCTTC: -0.405
CAAGGTCA: -0.0861
GCAAAATA: 0.348
AGCAAGCG: -0.18
AGACTCAG: -0.0745
AATCCTGC: 0.0194
CACTCACA: -0.00284
CGCCGCTA: -0.283
AGGTGTGA: -0.0238
AGCATTAT: 0.306
AACGTTGT: 0.14

Sample 2
Target: Histone acetyltransferase KAT6A, both winged helices, GST fusion (KAT6A, Homo sapiens, UniProt Q92794, residues 1-181)
Technique: protein binding microarray
Form: double-stranded DNA, one strand shown
Sample: in vitro
Tested at: not given
Notes: 8-mer, flanks averaged, mean of 2 arrays, mostly near background
Baseline: not given
Reading: higher = stronger binding
Quantity: E-score
Residues (chain): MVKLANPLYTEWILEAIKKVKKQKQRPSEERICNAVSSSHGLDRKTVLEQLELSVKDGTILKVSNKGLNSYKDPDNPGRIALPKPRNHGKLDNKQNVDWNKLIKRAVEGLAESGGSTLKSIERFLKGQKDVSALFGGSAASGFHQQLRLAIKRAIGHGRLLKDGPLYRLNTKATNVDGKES
CAGTACTG: -0.0343
TTCGAGAA: 0.0526
GGATTAAA: -0.013
ATTTTGTC: -0.018
GGATCCGA: 0.0653
ATCTGGGG: -0.216
GCTGAGCA: -0.122
CAGGGGAC: -0.0318
ACCCTCAA: -0.219
GGACTGTA: -0.0935
CTATCATA: -0.0707
GACTCGCA: 0.0534
AATTATAA: -0.0821
CGCCGCGA: 0.301
CTCAAGAC: -0.0291
GTCGAGAC: -0.0724
ACGTAGAG: -0.0855
GCGTAGAC: 0.125
ACACCATG: -0.17
GAGCTAAC: -0.0629
GTTGCAGA: -0.0759
GCCTAAGA: -0.0432
GATTTCAA: 0.0459
ATAGGTGG: -0.136
CAATAAGC: 0.0304

Sample 3
Target: RNA binding protein fox-1 homolog 2, RRM domain, GST-SBP tag (RBFOX2, Homo sapiens, UniProt O43251-10, residues 100-194)
Technique: RNA Bind-n-Seq
Form: RNA
Sample: in vitro
Tested at: 365 nM
Notes: natural RNA segment, single round, ends assumed
Baseline: no-protein control
Reading: higher = stronger binding
Quantity: RBNS enrichment (R)
Shared flanks, not repeated: GGGAGUUCUACAGUCCGACGAUC … UGGAAUUCUCGGGUGCCAA
Target sequence (chain): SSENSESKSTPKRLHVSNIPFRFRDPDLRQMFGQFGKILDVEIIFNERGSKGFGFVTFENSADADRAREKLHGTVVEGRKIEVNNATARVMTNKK
CACUUUAUGGGUUCUAGAUGAUGUUUUGACAUGUGCUCAACCUUGAUUUGUUGAUUUAGUUAAAAUAUACUAUUCCUAGAUUUAUUUAACAGUCUUUCUUAAAAUCAGUA: 0.464
GACAAAAGAAAGAGACAGACAGACAGACAGACAGAACAGGAAUUACAGUUGGCUUAGCAGGGAGGAUCUGUAGAGCUCUCGAUGAUCCUUCCUCCAUGUGUGUCCUGUGA: 0.56
GACAUGCAGGCCACAGGGCUUCUAGGCAGGGAAAGGGCACACACCCUAGGUCAGCGUGCAGAGCAGUGAUGCUGGAGGACACACCAUGGGGUGAAGCCAUCCCAAGGCUG: 0.656
GGCCAUGGCUGCAGAUGGAAUUGGAAAGUAAAAUAUUUGUGGCUGAGCCUCUUUAGUCUUCCCUGAAGCUGGCUUUCUAUGGUCAAGCUAUAAUUCUUUGGUGAAUAGGU: 0.771
GGAGAACCUACAAAGCUGGCAGAGUUUUGUCUUGCAUUGCGCCUCUCAGUGAACCUUCUCAGUAAAUGGUGCCUUACCGUCACUCCAGUUUCAGGAACCAGCCACAUUUC: 0.338
UACCGUGCUGUAUACCUAUCUACUUUUCUGGGCAGCUGAUGGAGCUCUGGAAGAAACACCAAAGCCUGCUGGAAAGGAAAGCGUUUGAAGAAAGAAUUGUCCUCCUGUAG: 0.445
AUCCUGGUGGGUCUUGCCUGUGACAGCAGACCCUCCAAACCUAAGAGCCACCAGCACUUCAGAGCCAGCCCUCAGCCCGGGUGGCCUGGAGAGGGCCAGUGCUGCCACUG: 0.965
UUGCAUUACUGCAAAACAGCAAAAACCGAAUAACCCGAGCCCUGCUGCUUUCUGAGCCCUGGGCCUGUGUCCUCCUAGAACUUCCAGGUUCCCGUUGCUUUGUUUUUCUG: 0.413

Sample 4
Target: Ras GTPase-activating protein-binding protein 1, full length (G3BP1, Homo sapiens, UniProt Q13283)
UniProt Q13283, sequence (whole entry, looked up): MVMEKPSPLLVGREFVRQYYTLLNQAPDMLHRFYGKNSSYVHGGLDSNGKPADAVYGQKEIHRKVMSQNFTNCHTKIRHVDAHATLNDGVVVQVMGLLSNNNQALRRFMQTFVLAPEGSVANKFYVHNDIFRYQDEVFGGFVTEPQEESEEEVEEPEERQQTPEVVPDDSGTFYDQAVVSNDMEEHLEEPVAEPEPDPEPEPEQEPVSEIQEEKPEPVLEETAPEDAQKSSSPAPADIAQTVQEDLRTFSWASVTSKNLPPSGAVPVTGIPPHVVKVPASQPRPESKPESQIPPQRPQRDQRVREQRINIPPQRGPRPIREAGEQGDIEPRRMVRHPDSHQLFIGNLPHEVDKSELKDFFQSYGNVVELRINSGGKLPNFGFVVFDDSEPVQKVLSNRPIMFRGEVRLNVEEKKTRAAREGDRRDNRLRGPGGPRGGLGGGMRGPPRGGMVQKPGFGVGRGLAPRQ
Technique: RNA Bind-n-Seq
Form: RNA
Sample: in vitro
Tested at: 200 nM
Notes: whole 134-nt RNA, ends assumed
Added: 150 mM KCl
Baseline: input library
Reading: higher = stronger binding
Quantity: log2 enrichment
Shared flanks, not repeated: GGGAGUUCUACAGUCCGACGAUC … UGGAAUUCUCGGGUGUCAAGG
GCAGGAAGUAAAUACAAAUGGAAAUGCUUCGGAUAGUGGCAGGGGUGGGGGUUGCUAAGGAAAGGGUGGGAUGGGAGUGGGUAAAGAGUU: 1.13
GGAUCAAAGCAAGUUGGAGAAACAUCAGCACCUGGAGACACCUUAGAUGGCACACCUCGUACUCUCAAUACUGUCUUUGAUUUCCCACCA: 0.923
GUCCUGUGCUACACAUCGUAUGUACCGAAUCGGUUUUUUUGGUUUUUUUGGAAAAAGGAAAGUAUUAUGUUACGCCGUUCGGAUCUGCAC: -1.23
CUGUGCUACACAUCGUAUGUACCGAAUCGGGUUUUUUUGGGUUUUUUUGGGGUUUUUUUGGAAAGUAUUAUGUUACGCCGUUCGGAUCUG: -0.808
UGGCCCUGGUGGCAUGCGGGGAGGAAGAGGUGGCCUCAUGGAUCGUGGUGGUCCCAGUGGAAUGUUCAGAGGUGGCCGUGGUGGAGACAG: 0.147
UGCUGGAGGCAAAAAAUGCCAGCCUGGCGUCGUCCAACAACGACUUGCAGGUGGCCGAGGAGCAGUACCAGAGGCUUAUGGCCAAGGUAG: -2.34
CUCAAGUCCUGUGCUACACAUCGUAUGUACCGAAUCGGGGAAGGGGAAGGAAGGAAAGUAUUAUGUUACGCCGUUCGGAUCUGCACUUCC: -0.2
AGUCCUGUGCUACACAUCGUAUGUACCGAAUCGGAAAAAGGGGAAAAAGGAAAAAGGAAAGUAUUAUGUUACGCCGUUCGGAUCUGCACU: -0.97
UGGGAGGUGGAUUUUGUUUAUGUUUUUAGCUCAUUUCCAGGGGUGGGAAUUUUUUUUUAAUAUGUGUCAUGAAUAAAGUUGUUUUUGAAA: 0.0477
